{"data": "Published values from different studies", "note": "Parts stem from different laboratories: compare values within a part only. Values joined by “and” are separate records of one study, mostly repeats; a detail may differ.", "UniProt P48729, sequence (whole entry, looked up)": "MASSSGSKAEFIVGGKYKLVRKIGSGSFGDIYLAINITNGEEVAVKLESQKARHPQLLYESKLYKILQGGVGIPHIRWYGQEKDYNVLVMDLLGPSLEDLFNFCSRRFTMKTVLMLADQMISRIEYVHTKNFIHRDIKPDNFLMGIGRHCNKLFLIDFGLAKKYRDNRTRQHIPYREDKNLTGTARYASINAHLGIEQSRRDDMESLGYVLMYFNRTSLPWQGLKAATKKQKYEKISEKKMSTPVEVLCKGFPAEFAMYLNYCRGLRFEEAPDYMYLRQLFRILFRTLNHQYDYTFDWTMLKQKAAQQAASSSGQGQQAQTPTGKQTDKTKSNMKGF", "UniProt Q9UKT9, sequence (whole entry, looked up)": "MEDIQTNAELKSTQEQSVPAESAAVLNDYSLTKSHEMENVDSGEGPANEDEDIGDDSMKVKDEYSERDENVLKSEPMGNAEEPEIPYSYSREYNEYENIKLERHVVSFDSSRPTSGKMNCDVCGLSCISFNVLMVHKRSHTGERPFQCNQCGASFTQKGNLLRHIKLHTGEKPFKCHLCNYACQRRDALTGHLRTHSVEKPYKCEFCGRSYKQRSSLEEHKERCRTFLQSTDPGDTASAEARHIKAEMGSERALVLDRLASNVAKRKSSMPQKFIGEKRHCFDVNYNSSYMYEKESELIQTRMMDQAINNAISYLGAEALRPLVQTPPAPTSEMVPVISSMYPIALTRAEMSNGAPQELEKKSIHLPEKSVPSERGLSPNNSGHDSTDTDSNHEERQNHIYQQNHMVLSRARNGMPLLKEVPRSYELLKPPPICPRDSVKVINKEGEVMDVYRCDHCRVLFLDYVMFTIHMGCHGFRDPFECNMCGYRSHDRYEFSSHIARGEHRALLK", "UniProt Q13555, sequence (whole entry, looked up)": "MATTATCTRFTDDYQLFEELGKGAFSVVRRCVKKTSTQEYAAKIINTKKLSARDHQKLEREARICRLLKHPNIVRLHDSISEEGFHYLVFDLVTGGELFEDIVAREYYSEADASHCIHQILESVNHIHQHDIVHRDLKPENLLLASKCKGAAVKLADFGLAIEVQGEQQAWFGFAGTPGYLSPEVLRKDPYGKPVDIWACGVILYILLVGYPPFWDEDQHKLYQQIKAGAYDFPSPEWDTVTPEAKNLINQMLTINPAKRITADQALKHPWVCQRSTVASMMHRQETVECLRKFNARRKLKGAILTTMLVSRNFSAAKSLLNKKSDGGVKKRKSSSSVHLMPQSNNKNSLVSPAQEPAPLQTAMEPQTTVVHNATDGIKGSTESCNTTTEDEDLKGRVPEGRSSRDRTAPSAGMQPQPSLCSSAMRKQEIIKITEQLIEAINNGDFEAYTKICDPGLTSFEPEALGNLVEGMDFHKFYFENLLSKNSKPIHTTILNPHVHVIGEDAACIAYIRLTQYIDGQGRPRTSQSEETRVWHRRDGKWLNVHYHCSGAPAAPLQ", "UniProt Q9UM73, sequence (whole entry, unmodified, looked up)": "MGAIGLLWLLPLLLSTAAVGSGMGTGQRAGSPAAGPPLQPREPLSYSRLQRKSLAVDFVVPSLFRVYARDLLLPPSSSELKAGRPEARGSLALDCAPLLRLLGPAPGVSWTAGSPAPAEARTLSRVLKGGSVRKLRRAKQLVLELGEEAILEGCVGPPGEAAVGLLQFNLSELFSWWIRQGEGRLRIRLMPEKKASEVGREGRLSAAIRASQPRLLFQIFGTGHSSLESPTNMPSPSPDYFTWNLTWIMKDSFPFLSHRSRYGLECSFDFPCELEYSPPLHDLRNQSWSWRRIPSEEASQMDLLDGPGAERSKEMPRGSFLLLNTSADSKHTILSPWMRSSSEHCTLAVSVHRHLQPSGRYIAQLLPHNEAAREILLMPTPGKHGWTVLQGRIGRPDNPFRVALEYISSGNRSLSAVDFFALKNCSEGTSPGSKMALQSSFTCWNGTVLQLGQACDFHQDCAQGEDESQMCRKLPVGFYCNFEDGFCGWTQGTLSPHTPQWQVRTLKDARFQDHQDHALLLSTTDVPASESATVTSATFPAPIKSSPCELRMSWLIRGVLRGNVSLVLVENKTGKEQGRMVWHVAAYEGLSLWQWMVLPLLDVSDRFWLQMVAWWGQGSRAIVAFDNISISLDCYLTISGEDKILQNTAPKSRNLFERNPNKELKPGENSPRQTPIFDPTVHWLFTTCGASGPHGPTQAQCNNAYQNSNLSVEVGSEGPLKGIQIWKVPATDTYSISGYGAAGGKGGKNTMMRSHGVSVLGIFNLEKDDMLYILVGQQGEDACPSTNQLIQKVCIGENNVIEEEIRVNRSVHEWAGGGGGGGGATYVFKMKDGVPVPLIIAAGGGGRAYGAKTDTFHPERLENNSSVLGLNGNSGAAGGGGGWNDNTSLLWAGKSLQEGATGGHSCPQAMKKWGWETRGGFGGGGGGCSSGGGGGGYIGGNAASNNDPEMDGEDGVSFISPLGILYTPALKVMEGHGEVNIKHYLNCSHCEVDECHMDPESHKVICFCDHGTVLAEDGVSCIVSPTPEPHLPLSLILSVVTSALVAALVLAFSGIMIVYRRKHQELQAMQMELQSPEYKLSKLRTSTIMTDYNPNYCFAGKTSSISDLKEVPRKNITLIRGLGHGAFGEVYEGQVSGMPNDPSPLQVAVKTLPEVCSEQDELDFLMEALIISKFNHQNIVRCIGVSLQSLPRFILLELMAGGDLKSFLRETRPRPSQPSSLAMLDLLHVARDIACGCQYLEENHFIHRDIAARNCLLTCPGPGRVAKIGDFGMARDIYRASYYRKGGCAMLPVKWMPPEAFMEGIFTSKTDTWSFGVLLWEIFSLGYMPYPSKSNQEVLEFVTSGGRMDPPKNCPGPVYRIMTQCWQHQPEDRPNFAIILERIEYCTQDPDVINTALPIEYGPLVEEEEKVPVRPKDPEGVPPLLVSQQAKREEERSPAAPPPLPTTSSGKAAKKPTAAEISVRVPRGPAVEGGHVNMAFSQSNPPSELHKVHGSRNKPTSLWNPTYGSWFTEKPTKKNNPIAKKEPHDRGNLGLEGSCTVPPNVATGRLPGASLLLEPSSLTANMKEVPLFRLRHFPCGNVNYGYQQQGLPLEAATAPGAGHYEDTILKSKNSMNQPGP", "UniProt Q8TBX8, sequence (whole entry, looked up)": "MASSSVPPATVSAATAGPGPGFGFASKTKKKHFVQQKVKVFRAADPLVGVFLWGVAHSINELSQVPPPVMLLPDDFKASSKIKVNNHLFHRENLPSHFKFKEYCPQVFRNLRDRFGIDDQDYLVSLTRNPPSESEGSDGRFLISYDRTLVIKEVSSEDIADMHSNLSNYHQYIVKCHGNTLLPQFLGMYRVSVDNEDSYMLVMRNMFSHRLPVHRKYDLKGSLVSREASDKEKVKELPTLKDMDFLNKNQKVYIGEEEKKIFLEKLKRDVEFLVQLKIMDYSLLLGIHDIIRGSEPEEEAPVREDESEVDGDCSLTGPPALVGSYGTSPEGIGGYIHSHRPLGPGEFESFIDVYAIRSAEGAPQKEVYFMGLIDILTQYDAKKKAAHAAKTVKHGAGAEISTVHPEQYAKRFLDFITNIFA"}
{"data": "Sample 1", "SMILES": "C[C@@H]1CN(c2ccc(-c3cc(C(=O)NCCOCCOCCOCCOCCNC(=O)/C=C/c4[nH]cc(C(=O)N[C@@H](CC(N)=O)c5ccc(F)c(Cl)c5)c4-c4ccc(Cl)cc4F)ccc3F)cc2NC(=O)c2c[nH]c(=O)cc2C(F)(F)F)C[C@H](C)N1C", "target": "WD repeat-containing protein 5 (WDR5, Homo sapiens, UniProt P61964)", "action": "degrader", "method": "Jess capillary immunoassay", "item": "WDR5 over vinculin", "time": "24 h", "relative to": "DMSO"}
{"setting": "2 nM", "remaining protein level": "94.7% and 101% and 113% and 112% and 96.9% and 97.4%"}
{"setting": "10000 nM", "remaining protein level": "95.1% and 48.2% and 85% and 39.9% and 64.7% and 81.3%"}
{"setting": "1821 nM", "remaining protein level": "51.2% and 50.5% and 87.1% and 64.4% and 56.4% and 77.8%"}
{"setting": "25.7 nM", "remaining protein level": "103% and 99.4% and 78.6% and 78.3% and 89.4% and 84.1%"}
{"setting": "141 nM", "remaining protein level": "107% and 64.3% and 92.7% and 62.1% and 62% and 78.8%"}
{"setting": "4.69 nM", "remaining protein level": "101% and 110% and 99.6% and 95% and 99.8% and 94.1%"}
{"data": "Sample 2", "Compound": "Cn1nc(C(F)(F)F)cc1-c1cnc(N2CCc3cc(S(=O)(=O)Nc4c(F)cc(Cl)cc4F)cc(N4CCCC4=O)c32)nc1", "method": "competition with immobilised ligand", "tested at": "1 µM"}
{"target": "CAMK1G (Homo sapiens, UniProt Q96NX5)", "test": "cell-free assay", "remaining binding": "100%"}
{"target": "SRPK2 (Homo sapiens, UniProt P78362)", "test": "binding", "remaining binding": "34%"}
{"target": "ALK (Homo sapiens, UniProt Q9UM73, L1196M)", "test": "cell-free assay", "remaining binding": "78%"}
{"target": "Mast/stem cell growth factor receptor Kit, autoinhibited (KIT, Homo sapiens, UniProt P10721)", "test": "cell-free assay", "remaining binding": "91%"}
{"target": "EIF2AK1 (Homo sapiens, UniProt Q9BQI3)", "test": "cell-free assay", "remaining binding": "100%"}
{"target": "MYLK3 (Homo sapiens, UniProt Q32MK0)", "test": "cell-free assay", "remaining binding": "84%"}
{"target": "MARK1 (Homo sapiens, UniProt Q9P0L2)", "test": "cell-free assay", "remaining binding": "92%"}
{"target": "NTRK3 (Homo sapiens, UniProt Q16288)", "test": "cell-free assay", "remaining binding": "98%"}
{"target": "PDGFRA (Homo sapiens, UniProt P16234)", "test": "cell-free assay", "remaining binding": "88%"}
{"target": "PIP4K2C (Homo sapiens, UniProt Q8TBX8)", "test": "cell-free assay", "remaining binding": "66%"}
{"target": "NUAK1 (Homo sapiens, UniProt O60285)", "test": "cell-free assay", "remaining binding": "89%"}
{"target": "CAMK2G (Homo sapiens, UniProt Q13555)", "test": "cell-free assay", "remaining binding": "95%"}
{"target": "Tyrosine-protein kinase ABL1, phosphorylated (ABL1, Homo sapiens, UniProt P00519, H396P)", "test": "cell-free assay", "remaining binding": "87%"}
{"target": "FGFR3 (Homo sapiens, UniProt P22607)", "test": "cell-free assay", "remaining binding": "100%"}
{"target": "ULK1 (Homo sapiens, UniProt O75385)", "test": "cell-free assay", "remaining binding": "79%"}
{"data": "Sample 3", "SMILES": "O=C1CCC(N2Cc3cc(C4CCN(Cc5ccccc5)CC4)ccc3C2=O)C(=O)N1 (centres unmarked)", "action": "degrader", "GSPT1": "Eukaryotic peptide chain release factor GTP-binding subunit ERF3A (GSPT1, Homo sapiens, UniProt P15170)", "SALL4": "Sal-like protein 4 (SALL4, Homo sapiens, UniProt Q9UJQ4)", "UniProt P15170, sequence (whole entry, looked up)": "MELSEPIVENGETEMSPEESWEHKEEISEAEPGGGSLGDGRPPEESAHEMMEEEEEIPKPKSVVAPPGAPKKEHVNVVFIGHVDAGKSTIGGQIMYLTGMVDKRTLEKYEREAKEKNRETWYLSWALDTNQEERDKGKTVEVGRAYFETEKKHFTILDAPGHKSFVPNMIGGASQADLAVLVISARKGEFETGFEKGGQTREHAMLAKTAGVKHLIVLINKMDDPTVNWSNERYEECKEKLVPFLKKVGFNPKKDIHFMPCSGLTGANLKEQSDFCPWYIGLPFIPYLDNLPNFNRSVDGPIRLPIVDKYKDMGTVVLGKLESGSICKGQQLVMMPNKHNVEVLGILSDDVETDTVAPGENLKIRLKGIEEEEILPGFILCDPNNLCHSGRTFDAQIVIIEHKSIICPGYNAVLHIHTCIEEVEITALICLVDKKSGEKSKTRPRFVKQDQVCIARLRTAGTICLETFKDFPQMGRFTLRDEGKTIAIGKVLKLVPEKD", "UniProt Q9UJQ4, sequence (whole entry, looked up)": "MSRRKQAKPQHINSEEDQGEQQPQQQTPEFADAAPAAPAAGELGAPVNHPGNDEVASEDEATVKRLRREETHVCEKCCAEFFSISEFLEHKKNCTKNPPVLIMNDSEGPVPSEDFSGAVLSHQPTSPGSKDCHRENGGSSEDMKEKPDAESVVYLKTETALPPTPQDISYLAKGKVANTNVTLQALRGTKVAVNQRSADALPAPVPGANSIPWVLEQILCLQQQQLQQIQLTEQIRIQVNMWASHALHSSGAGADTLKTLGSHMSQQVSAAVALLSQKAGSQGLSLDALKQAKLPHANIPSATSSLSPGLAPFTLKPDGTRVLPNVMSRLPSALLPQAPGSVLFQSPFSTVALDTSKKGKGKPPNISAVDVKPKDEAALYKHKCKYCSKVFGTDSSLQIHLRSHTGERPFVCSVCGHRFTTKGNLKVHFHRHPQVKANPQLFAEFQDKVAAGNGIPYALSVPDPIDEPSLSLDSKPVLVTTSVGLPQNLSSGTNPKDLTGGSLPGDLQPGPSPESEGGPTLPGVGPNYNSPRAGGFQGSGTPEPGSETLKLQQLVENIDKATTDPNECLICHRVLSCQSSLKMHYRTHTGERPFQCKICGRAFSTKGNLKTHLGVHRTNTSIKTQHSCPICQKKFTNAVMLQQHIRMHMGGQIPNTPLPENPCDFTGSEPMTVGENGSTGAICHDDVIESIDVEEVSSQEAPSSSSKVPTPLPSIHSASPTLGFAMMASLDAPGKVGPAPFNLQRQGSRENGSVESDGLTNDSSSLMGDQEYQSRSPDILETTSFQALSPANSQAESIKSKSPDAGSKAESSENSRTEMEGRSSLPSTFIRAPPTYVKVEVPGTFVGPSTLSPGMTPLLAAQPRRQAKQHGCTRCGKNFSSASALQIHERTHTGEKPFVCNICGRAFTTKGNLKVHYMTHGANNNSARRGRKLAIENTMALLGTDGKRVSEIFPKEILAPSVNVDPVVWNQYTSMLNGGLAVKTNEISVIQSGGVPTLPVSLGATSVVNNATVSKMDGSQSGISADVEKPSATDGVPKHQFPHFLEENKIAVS"}
{"target": "GSPT1", "test": "HiBiT", "test system": "HEK293", "setting": "0.3704 µM", "remaining protein": "108% and 84.1%"}
{"target": "SALL4", "test": "HiBiT", "test system": "HEK293", "setting": "0.04115 µM", "remaining protein": "54.2% and 53.7%"}
{"target": "GSPT1", "test": "HiBiT", "test system": "HEK293", "setting": "0.01372 µM, 6 h", "remaining protein": "111%"}
{"target": "GSPT1", "test": "HiBiT", "test system": "HEK293", "setting": "0.04115 µM", "remaining protein": "91.4% and 111%"}
{"target": "GSPT1", "test": "HiBiT", "test system": "HEK293", "setting": "0.1235 µM, 6 h", "remaining protein": "100%"}
{"target": "CRBN/Zinc finger protein Helios (Homo sapiens, UniProt Q96SW2+Q9UKS7)", "test": "flow cytometry", "test system": "primary human regulatory T cells", "setting": "0.0001524 µM, 3 h", "remaining protein": "107%"}
{"target": "SALL4", "test": "HiBiT", "test system": "HEK293", "setting": "0.004572 µM, 6 h", "remaining protein": "61.8%"}
{"target": "Zinc finger protein Aiolos (Homo sapiens, UniProt Q9UKT9)", "test": "HiBiT", "test system": "HEK293", "setting": "0.1235 µM, 6 h", "remaining protein": "83.7%"}
{"target": "CSNK1A1 (Homo sapiens, UniProt P48729)", "test": "HiBiT", "test system": "HEK293 HiBiT-CK1α", "setting": "123.5 nM", "remaining protein": "91.6% and 93.5%"}
{"target": "Zinc finger protein Eos (IKZF4, Homo sapiens, UniProt Q9H2S9)", "test": "HiBiT", "test system": "HEK293", "setting": "0.01235 µM, 3 h", "remaining protein": "124%"}
{"data": "Sample 4", "species": "mouse", "medium": "microsomes or S9", "tested at": "2 µM", "time": "0.5 h"}
{"SMILES": "COc1cc(-c2nc3c(c(=O)[nH]c(=O)n3CC(C)C)n2CC(C)C)cc(OC)c1OC", "remaining compound": "49.3%"}
{"SMILES": "CSc1cc(=O)oc2c(Cl)ccc(Cl)c12", "remaining compound": "> 99%"}
{"SMILES": "CCCOc1ccccc1-c1nc2nn[nH]c2c(=O)[nH]1", "remaining compound": "59.5%"}
{"SMILES": "Cc1cc(NC(=O)C(O)c2cc(Cl)cc(Cl)c2)c[nH]c1=O (centres unmarked)", "remaining compound": "90.9%"}
{"SMILES": "CC1(COC(=O)Nc2ccc(Cl)cc2)CCC(C(C)(C)C)=NO1 (centres unmarked)", "remaining compound": "3.66%"}
{"SMILES": "COC(=O)c1c(=O)n(Cc2ccc(C(C)(C)C)cc2)c(=O)n2c(-c3ccc(Cl)cc3)c(-c3ccc(Cl)cc3)oc12", "remaining compound": "> 99.9%"}
{"SMILES": "Cc1ccc2c(c1)Oc1cc(Cl)c(S(=O)(=O)N3CCc4ccccc4C3)cc1C(=O)N2", "remaining compound": "> 100%"}
{"SMILES": "Cn1cc(S(=O)(=O)N2CCCCC2)cc1C(=O)Nc1ccc2c(c1)OCCO2", "remaining compound": "12%"}
{"SMILES": "CC(C)Cn1cc(NC(=O)NC2CCN(Cc3ccccc3)CC2)c2ccccc2c1=O", "remaining compound": "59%"}
{"SMILES": "CCOC(=O)Cn1c(C(=O)OCC)cc2cc(NS(=O)(=O)c3ccc(OC)c(OC)c3)ccc21", "remaining compound": "0.00951%"}
{"note": "Some of these lines once more (sample 2):"}
{"target": "Mast/stem cell growth factor receptor Kit, autoinhibited (KIT, Homo sapiens, UniProt P10721)", "test": "cell-free assay", "remaining binding": "91%"}
{"target": "CAMK2G (Homo sapiens, UniProt Q13555)", "test": "cell-free assay", "remaining binding": "95%"}
{"target": "SRPK2 (Homo sapiens, UniProt P78362)", "test": "binding", "remaining binding": "34%"}
{"target": "PDGFRA (Homo sapiens, UniProt P16234)", "test": "cell-free assay", "remaining binding": "88%"}
{"target": "MARK1 (Homo sapiens, UniProt Q9P0L2)", "test": "cell-free assay", "remaining binding": "92%"}
